Results pooled from the literature.
Each numbered part is a random draw from the data of one study; scales do not carry over between parts.

Sample 1
Target: Prothrombin, mature alpha-thrombin (F2, Homo sapiens, UniProt P00734)
Technique: aptamer microarray, sandwich
Molecule type: DNA with 2'F-ANA
Matrix: in vitro
Tested at: 200 nM
Setting: whole 15-mer aptamer, many near background
Together with: Cy3 exosite-II aptamer, 400 nM
Direction: higher = stronger binding
Strand: GGTTGGTGTGGTTGG
For `2'F-ANA at 3 8 9 11 12 13 14 15`, “mean fluorescence intensity” read 608 a.u.
`2'F-ANA at 1 2 4 6 7 9 12 15` — result for “mean fluorescence intensity”: 235 a.u.
`2'F-ANA at 3 4 5 8 9 11 13`: “mean fluorescence intensity” 68.5 a.u.
`2'F-ANA at 4 5 6 8 9 11 13` — result for “mean fluorescence intensity”: 82.2 a.u.
`2'F-ANA at 1 2 5 8 11` — result for “mean fluorescence intensity”: 52.4 a.u.
For `2'F-ANA at 1 3 7 8 10 11 13 14 15`, “mean fluorescence intensity” read 64.1 a.u.
Under “mean fluorescence intensity”, `2'F-ANA at 1 4 7 8 10 12 13 15` is recorded as 58.2 a.u.
For `2'F-ANA at 2 8 11 12 13 14 15`, “mean fluorescence intensity” read 161 a.u.
`2'F-ANA at 2 3 5 8 9 10 13 14 15` — result for “mean fluorescence intensity”: 65.1 a.u.
For `2'F-ANA at 4 8 9 12 14 15`, “mean fluorescence intensity” read 120 a.u.
Under “mean fluorescence intensity”, `2'F-ANA at 2 3 4 6 9 10 11 13 15` is recorded as 148 a.u.
`2'F-ANA at 3 4 5 6 9 10 11` — result for “mean fluorescence intensity”: 53.6 a.u.
`2'F-ANA at 1 4 5 8 11 12 14`: “mean fluorescence intensity” 50.6 a.u.
`2'F-ANA at 1 7 10 11 13 14`: “mean fluorescence intensity” 55.5 a.u.
`2'F-ANA at 1 3 5 7 9 11` — result for “mean fluorescence intensity”: 60.2 a.u.
Under “mean fluorescence intensity”, `2'F-ANA at 3 5 10 12 13` is recorded as 86.4 a.u.
`2'F-ANA at 1 4 5 7 11 14` — result for “mean fluorescence intensity”: 147 a.u.
`2'F-ANA at 1 2 3 5 8 9 10 11 15` — result for “mean fluorescence intensity”: 48.8 a.u.
For `2'F-ANA at 1 2 5 7 8 9 10 11 14`, “mean fluorescence intensity” read 56.2 a.u.

Sample 2
Molecule: SAPSAPIRLPHTAALS
Observed: yeast growth
Technique: competitive growth deep sequencing
Molecule type: peptide
Organism: Saccharomyces cerevisiae
Setting: peptide tiling library
Direction: direction not given
For human cyclin B1-Cln2 fusion: enrichment score read -0.208.
The enrichment score was 1.84 (human cyclin D1-Cln2 fusion).
It gave 0.937 for enrichment score (human cyclin E2-Cln2 fusion).
The enrichment score was 0.922 (human cyclin E1-Cln2 fusion).
human cyclin F-Cln2 fusion — enrichment score: 0.171.

Sample 3
Target: RNA binding protein fox-1 homolog 2, RRM domain, GST-SBP tag (RBFOX2, Homo sapiens, UniProt O43251-10, residues 100-194)
Technique: RNA Bind-n-Seq
Molecule type: RNA
Matrix: in vitro
Tested at: 365 nM
Setting: natural RNA segment, single round, ends assumed
Baseline: no-protein control
Direction: higher = stronger binding
Shared flanks, not repeated: GGGAGUUCUACAGUCCGACGAUC … UGGAAUUCUCGGGUGCCAA
Target sequence (chain): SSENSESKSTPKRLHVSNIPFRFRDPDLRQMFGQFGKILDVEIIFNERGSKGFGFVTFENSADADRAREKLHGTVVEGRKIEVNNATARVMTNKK
For `UGGCCCUGACAUCCCCACAUGCCCGCAGAGAUCCUCUUUGAGUGUCUGUCUUUGUCCAGGUUUCAGACAUUUCUAGGUUGGGGAAGAUGCUAUUGGGAAACCUCUUCUCC`, “RBNS enrichment (R)” read 0.396.
For `UAAGCCAAGCCUGCCCAGCUAAUGAGCUGUUUGACGUUGAACUUGAAAGCUUUCCCCUCCCUCUAAGAUGAUGUAGGUACUUGAGGUUUGGGUUAAAGGGGCUGGGUGGG`, “RBNS enrichment (R)” read 0.57.
`GGUGGCCCACAAAGCCUUACACAAGGCGAGAUGUCAAUGAAGGGGUUGGCCUGUGUGUUCCAUCUCUGCUCACCUCUGCCUCUACUCUGAGAUGCAGCCUGGCUGAUCCU`: “RBNS enrichment (R)” 0.252.
For `CUGUUCUGGAACUUGCUCUGAAGACCAGGCUGACCUCGAACUCAGAGAUCUGCCUGCCUCUGCUUCCCAAGUGCUGGGAUUAAAGGCAUGCGCCACCUUCACCUGGGUUU`, “RBNS enrichment (R)” read 0.385.
For `CAGAUGGGGGCCUGUGGCUCCCGUUUUCAUUGUAGUAUUUUAUCCCCUGCACCCACUCCCUUCAUAGAAUCUAGUCAGAAUAACGCCUCUGGGGGUGCAGGUUCUCGGAC`, “RBNS enrichment (R)” read 0.299.
`AUAUUUUAAUGAUUCACUUGCCAAAUUACUUCCUGGGUGGUAUCAUUUCCUUAUCUCUCUGAUUAUCUUCUGGGACCCACGUCCUUUCCUCCACAUACCUACACCUUGGG`: “RBNS enrichment (R)” 0.382.
`CCGUCCCAGUUUGCCUGGGACUUUCUCAUUUUUACAGAGUCCCAAAUCCUAGGAAACUGGAGCAACUGGUACAACUGGUCACCUACUCUUGCCCCUCUGUAAAUCAAGCC`: “RBNS enrichment (R)” 0.252.
`UCUGUUCAAAUGCAUUGAGAGACAUGACCUCAGAAUACCUAGUGUGAACAUUCUAAGUUGUACUGUUCUUAACAGACAUGAAAGAUCUCAGGUAAAUAAAAAAAAUUUUA` — result for “RBNS enrichment (R)”: 0.542.

Sample 4
Target: Sal-like protein 4, full length isoform A (SALL4, Homo sapiens, UniProt Q9UJQ4, residues 1-1053)
Chain of UniProt Q9UJQ4 (whole entry, looked up): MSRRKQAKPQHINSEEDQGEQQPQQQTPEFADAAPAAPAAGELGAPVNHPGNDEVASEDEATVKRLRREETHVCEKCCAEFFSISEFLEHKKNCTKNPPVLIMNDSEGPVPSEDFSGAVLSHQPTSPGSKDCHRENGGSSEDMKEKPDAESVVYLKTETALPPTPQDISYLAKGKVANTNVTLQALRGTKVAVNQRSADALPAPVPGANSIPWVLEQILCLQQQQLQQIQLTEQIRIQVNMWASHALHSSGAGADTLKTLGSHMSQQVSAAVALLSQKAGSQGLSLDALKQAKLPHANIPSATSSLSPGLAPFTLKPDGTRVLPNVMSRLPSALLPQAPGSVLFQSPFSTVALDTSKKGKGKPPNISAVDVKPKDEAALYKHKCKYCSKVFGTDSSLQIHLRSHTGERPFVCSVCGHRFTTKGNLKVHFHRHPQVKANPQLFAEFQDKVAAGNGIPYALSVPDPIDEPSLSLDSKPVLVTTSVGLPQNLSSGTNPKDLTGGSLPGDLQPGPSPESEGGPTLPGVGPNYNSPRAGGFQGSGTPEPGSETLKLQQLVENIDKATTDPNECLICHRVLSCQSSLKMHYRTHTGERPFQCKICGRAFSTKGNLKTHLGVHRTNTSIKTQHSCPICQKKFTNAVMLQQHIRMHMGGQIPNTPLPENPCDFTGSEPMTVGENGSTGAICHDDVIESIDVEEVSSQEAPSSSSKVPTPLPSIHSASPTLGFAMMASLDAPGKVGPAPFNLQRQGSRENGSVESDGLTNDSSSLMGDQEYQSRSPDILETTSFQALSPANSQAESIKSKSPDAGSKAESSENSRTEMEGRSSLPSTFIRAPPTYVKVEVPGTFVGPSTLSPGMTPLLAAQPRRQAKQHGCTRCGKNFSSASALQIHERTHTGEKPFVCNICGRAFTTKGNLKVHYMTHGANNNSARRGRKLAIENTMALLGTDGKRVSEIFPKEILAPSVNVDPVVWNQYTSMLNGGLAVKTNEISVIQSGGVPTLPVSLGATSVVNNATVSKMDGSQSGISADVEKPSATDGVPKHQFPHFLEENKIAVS
Technique: universal PBM
Molecule type: double-stranded DNA, one strand shown
Matrix: in vitro
Tested at: 600 nM
Setting: 8-mer, flanks averaged, mean of replicates
Direction: higher = stronger binding
With `AAATGGCC` the E-score was -0.165.
The E-score of `ATATCGAC` is reported as 0.269.
`GCATTTAA` has an E-score of 0.186.
The E-score of `ATACCGAA` is reported as 0.223.
For `CGACACCA`, the E-score was -0.169.
The E-score of `CGCCCTAA` is reported as -0.124.
The E-score of `AGTGCTTA` is reported as 0.0932.
`ATGCCCCC` has an E-score of -0.253.
With `GGACGCAC` the E-score was -0.277.
`CGTGTCGC` has an E-score of -0.216.
For `ATGAACAT`, the E-score was 0.242.
For `CTTGGCGC`, the E-score was -0.152.
`CGTACTAG` has an E-score of -0.0436.
For `GCTTAACA`, the E-score was 0.132.
For `GGTCTCCA`, the E-score was -0.139.
`AGCAGCAA` has an E-score of -0.00352.
The E-score of `CCTAGAGC` is reported as -0.205.
For `CCCATGTA`, the E-score was 0.0886.
For `CCGTTAAG`, the E-score was -0.146.
For `TGCGACCA`, the E-score was -0.0625.
For `AATGGGGT`, the E-score was -0.0251.
The E-score of `CGTGATTA` is reported as 0.2.
`AGGTGAAC` has an E-score of -0.12.
`TCTATGAA` has an E-score of 0.23.
`ACGACGAA` has an E-score of 0.0303.

Other studies, line by line
`PhoQ, residues 284 288 289 292 302 303 TGYLSA` gave a fold induction of 13.7 (PhoP, residues 12 14 15 18 19 SYFRT (Escherichia coli, UniProt P23836); Sort-seq, refers to: YFP reporter; E. coli; PhoQ-PhoP variant library, together with: 10 µM Mg2+; baseline: high Mg2+ state, higher = stronger signaling).
